{"data": "Experimental data gathered from unrelated publications", "POLB": "DNA polymerase beta (POLB, Homo sapiens, UniProt P06746)", "note": "Lines come from different studies, so protocols differ. “And” joins repeats or separate records; there may be more than shown. Numbers after ± are the reported error."}
{"SMILES": "O=C([O-])CN(CCN(CC(=O)[O-])Cc1cc(CCC(=O)NCCCCCC(=O)NCCCC[C@H](NC(=O)N[C@@H](CCC(=O)O)C(=O)O)C(=O)O)ccc1O)Cc1cc(CCC(=O)O)ccc1[O-].[68Ga+3]", "target": "FOLH1 (Homo sapiens, UniProt Q04609)", "assay": "PET/CT", "test system": "prostate cancer patients, primary prostate cancer lesions", "how to read": "relative to: primary lesions over liver", "measurement": "tumour-to-normal tissue ratio", "result": "6.62 ± 6.05"}
{"SMILES": "Nc1nc2c(ncn2[C@H]2C[C@H](O)[C@@H](COP(=O)(O)OP(=O)(O)[C@H](Cl)P(=O)(O)O)O2)c(=O)[nH]1", "target": "POLB", "assay": "substrate", "setting": "opposite dC", "how to read": "relative to: R over S", "measurement": "stereoselectivity ratio", "result": 7}
{"SMILES": "CN1CCN(CC(=O)N2N=C3/C(=C/c4ccccc4)CCCC3C2c2ccccc2)CC1 (mixture of isomers)", "target": "ALOX15B (Homo sapiens, UniProt O15296)", "assay": "activator", "setting": "20 µM, with: arachidonic acid", "how to read": "relative to: activator 0 µM", "measurement": "enzyme activity", "result": "94.9%"}
{"SMILES": "CC1CCN(C(=O)CCc2nc(CN3CCN(S(=O)(=O)c4ccc(Cl)cc4)CC3)no2)CC1", "target": "KCNQ2 (Homo sapiens, UniProt O43526)", "assay": "potassium current, activator, whole-cell patch clamp", "test system": "CHO, stable", "setting": "20 µM", "how to read": "relative to: current before compound", "measurement": "current fold increase", "result": "1.14 ± 0.12"}
{"SMILES": "C[n+]1cn(C2OC(COP(=O)(O)OP(=O)([O-])OP(=O)(O)OCC3OC(n4cnc5c(=O)[nH]c(N)nc54)C(O)C3O)C(O)C2O)c2nc(NCc3ccc(Cl)cc3)[nH]c(=O)c21 (centres unmarked)", "target": "Eif4e (Mus musculus, UniProt P63073)", "assay": "differential scanning fluorimetry", "how to read": "relative to: m7GpppG", "measurement": "relative affinity", "result": "~5"}
{"SMILES": "[11CH3]Nc1ccc(-c2nc3ccc(O)cc3o2)cn1", "target": "APP (Homo sapiens, UniProt P05067)", "assay": "binding, PET, reference Logan", "test system": "Alzheimer's disease patients, hippocampus", "how to read": "relative to: cerebellum", "measurement": "distribution volume ratio", "result": "1.2 ± 0.07"}
{"SMILES": "COc1ccc(-c2cc(C(F)(F)F)nc(NCc3cccnc3)n2)cc1OC", "target": "Secretin receptor (SCTR, Homo sapiens, UniProt P47872)", "assay": "increase of tracer binding, TR-FRET", "test system": "HEK293 membranes", "setting": "with: Fluo-Sec 6 nM", "measurement": "Emax", "result": "165 ± 12%"}
{"SMILES": "O=C(c1ccc(-c2ccc(Cl)cc2)o1)N1CCOc2cc(Cl)ccc21", "target": "Nuclear receptor subfamily 4 group A member 2, ligand binding domain (Homo sapiens, UniProt P43354)", "assay": "reporter gene, agonist, Gal4-Nurr1 hybrid reporter", "test system": "HEK-293T", "setting": "3 µM, crude library product", "how to read": "relative to: vehicle (0.1% DMSO)", "measurement": "activation", "result": "1.74 fold and > 1.5 fold"}
{"SMILES": "Nc1nc2c(ncn2C2CC(O)C(COP(=O)(O)OP(=O)(O)C(F)(Cl)P(=O)(O)O)O2)c(=O)[nH]1 (mixture of isomers)", "target": "POLB", "assay": "nucleotide incorporation, substrate, single turnover kinetics", "setting": "dG misincorporation opposite A", "measurement": "kpol/Kd", "result": "2.2 ± 0.96 M⁻¹ s⁻¹"}
{"SMILES": "CCOC(=O)c1c(N)sc2c1CCN(Cc1ccccc1)C2", "target": "Carbamate kinase (Giardia intestinalis, UniProt A8BB85)", "assay": "enzyme activity, inhibitor, luminescence, ATP detection", "test system": "Giardia lamblia", "measurement": "maximal inhibition", "result": "80.2%"}
{"SMILES": "O=C1c2ccc(O)c3c2C(=[O+][Co-2]2([O]3)[O]c3c(O)ccc4c3C(=[O+]2)c2c(O)ccc(O)c2C4=O)c2c(O)ccc(O)c21", "target": "DNA topoisomerase 1 (TOP1, Homo sapiens, UniProt P11387)", "assay": "DNA relaxation, inhibitor, agarose gel", "measurement": "minimum inhibitory concentration", "result": "40 µM"}
{"SMILES": "C[C@]12CC[C@@H]3c4cc(Br)c(O)cc4CC[C@H]3[C@@H]1CCC2=O", "target": "AKR1C3 (Homo sapiens, UniProt P42330)", "assay": "enzyme activity, inhibitor, absorbance", "setting": "100 µM, pH 9", "measurement": "inhibition", "result": "40.2%"}
{"SMILES": "Cc1cc(=O)oc2cc(NC(=O)CCCCCCCC(=O)NO)ccc12", "target": "HDAC8 (Homo sapiens, UniProt Q9BY41)", "assay": "temperature-dependent ITC", "measurement": "temperature where ΔG equals ΔH", "result": "377 K"}
{"SMILES": "N#Cc1ccccc1Oc1ccc(Cl)cc1O", "target": "Enoyl-[acyl-carrier-protein] reductase [NADPH] FabI (Staphylococcus aureus, UniProt Q6GI75)", "assay": "binding", "measurement": "residence time", "result": "30 min"}
{"note": "A few entries again:"}
{"SMILES": "Cc1cc(=O)oc2cc(NC(=O)CCCCCCCC(=O)NO)ccc12", "target": "HDAC8 (Homo sapiens, UniProt Q9BY41)", "assay": "temperature-dependent ITC", "measurement": "temperature where ΔG equals ΔH", "result": "377 K"}
